Measured values collected from several papers.
Numbered parts are unrelated; each lists some results of a single study.

Sample 1 — method: protein binding microarray; molecule type: double-stranded DNA, one strand shown; medium: in vitro; concentration: not given; relative to: not given; reading: higher = stronger binding
Target: Histone acetyltransferase KAT6A, winged helix 1, GST fusion (KAT6A, Homo sapiens, UniProt Q92794, residues 1-85)
Setting: 8-mer, flanks averaged, mean of 2 arrays, mostly near background
Target sequence (chain): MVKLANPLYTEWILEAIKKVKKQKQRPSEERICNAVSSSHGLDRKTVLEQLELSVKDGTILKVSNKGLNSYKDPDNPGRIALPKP
`GACTTCCA` has an E-score of -0.221.
`CACGTTGC` gave an E-score of -0.102.
With `GATCGCCA` the E-score was 0.0342.
For `ATGAGATG`, the E-score was -0.184.

Sample 2 — method: universal PBM; molecule type: double-stranded DNA, one strand shown; medium: in vitro; concentration: 600 nM; reading: higher = stronger binding
Target: Sal-like protein 4, full length isoform A (SALL4, Homo sapiens, UniProt Q9UJQ4, residues 1-1053)
UniProt Q9UJQ4, sequence (whole entry, looked up): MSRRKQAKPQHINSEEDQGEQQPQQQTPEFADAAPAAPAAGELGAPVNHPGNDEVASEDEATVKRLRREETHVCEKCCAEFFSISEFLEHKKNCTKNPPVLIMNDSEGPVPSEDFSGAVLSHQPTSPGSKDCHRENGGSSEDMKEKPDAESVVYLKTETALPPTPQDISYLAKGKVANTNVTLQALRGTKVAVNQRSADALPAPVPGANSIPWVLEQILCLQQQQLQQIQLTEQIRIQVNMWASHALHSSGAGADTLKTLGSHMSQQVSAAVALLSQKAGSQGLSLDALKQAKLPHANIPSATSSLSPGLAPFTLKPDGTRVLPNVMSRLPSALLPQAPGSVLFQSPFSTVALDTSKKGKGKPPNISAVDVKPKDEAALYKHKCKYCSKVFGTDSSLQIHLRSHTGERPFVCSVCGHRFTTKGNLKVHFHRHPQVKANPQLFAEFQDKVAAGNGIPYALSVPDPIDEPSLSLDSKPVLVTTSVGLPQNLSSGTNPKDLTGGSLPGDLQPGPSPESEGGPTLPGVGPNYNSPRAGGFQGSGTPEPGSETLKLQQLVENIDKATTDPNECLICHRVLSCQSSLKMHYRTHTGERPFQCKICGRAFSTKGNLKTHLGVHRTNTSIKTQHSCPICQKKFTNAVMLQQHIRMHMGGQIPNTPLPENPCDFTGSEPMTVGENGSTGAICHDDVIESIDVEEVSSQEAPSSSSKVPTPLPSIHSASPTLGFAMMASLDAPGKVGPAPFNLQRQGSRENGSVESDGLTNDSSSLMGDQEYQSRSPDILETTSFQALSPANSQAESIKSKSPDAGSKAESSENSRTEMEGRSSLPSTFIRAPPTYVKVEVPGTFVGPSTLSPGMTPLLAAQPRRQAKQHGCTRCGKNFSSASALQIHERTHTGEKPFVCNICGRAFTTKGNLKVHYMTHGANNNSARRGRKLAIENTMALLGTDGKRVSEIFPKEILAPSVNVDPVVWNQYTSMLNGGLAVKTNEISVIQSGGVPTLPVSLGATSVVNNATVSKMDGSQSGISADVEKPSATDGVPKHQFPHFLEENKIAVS
Setting: 8-mer, flanks averaged, mean of replicates
With `ACTATAGG` the E-score was 0.184.
`AGCCCCTA` has an E-score of -0.223.
`AAGCGTCC` has an E-score of -0.231.
The E-score of `AATCTGAA` is reported as 0.209.
The E-score of `CCCATCGG` is reported as -0.205.

Sample 3 — method: competition protein-binding microarray; molecule type: double-stranded DNA, one strand shown; medium: in vitro; concentration: 2 µM; added: Cbf1 competitor, 0.05 µM; reading: higher = stronger binding; constant ends, left off below: … GTCTTGATTCGCTTGACGCTGCTG
Target: Phosphate system positive regulatory protein PHO4, full length, GST-tagged (PHO4, Saccharomyces cerevisiae, UniProt P07270, residues 1-312)
UniProt P07270, sequence (whole entry, looked up): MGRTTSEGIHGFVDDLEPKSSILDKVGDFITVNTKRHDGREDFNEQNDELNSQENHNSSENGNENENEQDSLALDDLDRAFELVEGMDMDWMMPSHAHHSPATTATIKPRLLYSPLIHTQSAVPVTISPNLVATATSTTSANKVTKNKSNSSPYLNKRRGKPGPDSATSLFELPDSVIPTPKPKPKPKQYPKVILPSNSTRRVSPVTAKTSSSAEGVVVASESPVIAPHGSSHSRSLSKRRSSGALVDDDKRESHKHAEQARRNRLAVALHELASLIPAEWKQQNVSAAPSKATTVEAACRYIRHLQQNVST
Setting: whole 60-bp probe, lowest competitor level
`CAATTCGGCAAGAGGTGTTCTGCGCATCTGAATTAT` has a fluorescence intensity of 3440 a.u.
For `GATAAGCTAACGAACCTCATGACGCACAAGGACGAA`, the fluorescence intensity was 6770 a.u.
The fluorescence intensity of `GTTTAGAATCCCCATCACGTACGAGTTGAAGAATTC` is reported as 4420 a.u.
`AACCAGTCCAAAAAGTACGTGCAATAAAAGAAGTTG` has a fluorescence intensity of 7820 a.u.
`ATGAATGTTGCGAGTCACGTCTTTTGTCTCGATACC` has a fluorescence intensity of 5340 a.u.

Mixed results
`PhoQ, residues 284 288 289 292 302 303 GLASVI` has a fold induction of 0.989 (PhoP, residues 12 14 15 18 19 NIMAP (Escherichia coli, UniProt P23836); Sort-seq, refers to: YFP reporter; E. coli; PhoQ-PhoP variant library, added: 10 µM Mg2+; relative to: high Mg2+ state, higher = stronger signaling).

Some of these lines once more (sample 3):
For `GATAAGCTAACGAACCTCATGACGCACAAGGACGAA`, the fluorescence intensity was 6770 a.u.
The fluorescence intensity of `GTTTAGAATCCCCATCACGTACGAGTTGAAGAATTC` is reported as 4420 a.u.
